Measured values from different studies.
Lines come from different studies, so protocols differ. Numbers after ± are the reported error.
U2AF2: U2AF2 148-342 (Homo sapiens, UniProt P26368)
Sequence of UniProt P26368 (whole entry, looked up): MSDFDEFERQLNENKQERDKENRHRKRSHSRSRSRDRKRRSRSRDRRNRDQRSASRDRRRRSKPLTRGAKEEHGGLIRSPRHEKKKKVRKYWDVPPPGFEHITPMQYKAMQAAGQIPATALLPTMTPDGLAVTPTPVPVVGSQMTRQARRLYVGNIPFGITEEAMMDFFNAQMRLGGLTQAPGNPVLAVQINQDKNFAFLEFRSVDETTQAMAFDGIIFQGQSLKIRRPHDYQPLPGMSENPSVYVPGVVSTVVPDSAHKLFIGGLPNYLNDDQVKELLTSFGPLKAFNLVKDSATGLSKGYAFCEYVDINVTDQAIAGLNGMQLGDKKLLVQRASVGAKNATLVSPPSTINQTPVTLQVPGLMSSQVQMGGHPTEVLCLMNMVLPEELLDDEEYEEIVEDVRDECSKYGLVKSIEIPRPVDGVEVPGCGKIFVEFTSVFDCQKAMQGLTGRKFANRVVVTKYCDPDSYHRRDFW
B1: OsCATC T105A (Oryza sativa, UniProt Q10S82); sequence looked up; chain MDPYKHRPSSSFNGPLWSTNSGAPVWNNNNSLTVGSRGPILLEDYHLVEKLANFDRERIPERVVHARGASAKGFFEVTHDITHLTCADFLRAPGVQTPVIVRFSAVIHERGSPETLRDPRGFAIKFYTREGNWDLVGNNFPVFFIRDGMKFPDMVHSLKPNPKSHVQENWRILDFFSHHPESLHMFTFLFDDIGIPADYRHMDGSGVNTYTLVNRAGKSHYVKFHWKPTCGVKSLLDDEAVTVGGTNHSHATQDLYDSIAAGNFPEWKLFIQTIDPDHEDRFDFDPLDVTKTWPEDIVPLQPVGRMVLNRNIDNFFSENEQLAFCPGIIVPGIYYSDDKLLQTRIFSYSDTQRHRLGPNYLLLPPNAPKCAHHNNHYDGFMNFMHRDEEVDYFPSRYDPAKHAPRYPIPSATLTGRREKVVIAKENNFKQPGERYRSWDPARQDRFIKRWIDALSDPRLTHEIRSIWLSYWSQADRSLGQKLASRLSAKPSM
B2: FCY1 homodimer M100W (yeast, UniProt Q12178); sequence looked up; chain MVTGGMASKWDQKGMDIAYEEAALGYKEGGVPIGGCLINNKDGSVLGRGHNMRFQKGSATLHGEISTLENCGRLEGKVYKDTTLYTTLSPCDMCTGAIIWYGIPRCVVGENVNFKSKGEKYLQTRGHEVVVVDDERCKKIMKQFIDERPQDWFEDIGE
B3: SPOP R45W (Homo sapiens, UniProt O43791); sequence looked up; chain MSRVPSPPPPAEMSSGPVAESWCYTQIKVVKFSYMWTINNFSFCWEEMGEVIKSSTFSSGANDKLKWCLRVNPKGLDEESKDYLSLYLLLVSCPKSEVRAKFKFSILNAKGEETKAMESQRAYRFVQGKDWGFKKFIRRDFLLDEANGLLPDDKLTLFCEVSVVQDSVNISGQNTMNMVKVPECRLADELGGLWENSRFTDCCLCVAGQEFQAHKAILAARSPVFSAMFEHEMEESKKNRVEINDVEPEVFKEMMCFIYTGKAPNLDKMADDLLAAADKYALERLKVMCEDALCSNLSVENAAEILILADLHSADQLKTQAVDFINYHASDVLETSGWKSMVVSHPHLVAEAYRSLASAQCPFLGPPRKRLKQS
B4: ph-p 1397-1577 D33K/D34R (Drosophila melanogaster, UniProt P39769); chain GVGSGETNGLGTGGIVGVDAMALVDRLDEAMAEEKMQTEATPKLSESFPILGASTEVPPMSLPVQAAISAPSPLAMPLGSPLSVALPTLAPLSVVTSGAAPKSSEVNGTDRPPISSWSVDDVSNFIRELPGCQDYVKRFIQQEIDGQALLLLKEKHLVNAMGMKLGPALKIVAKVESIKEV
B5: DDX50 K187R (Homo sapiens, UniProt Q9BQ39); sequence looked up; chain MPGKLLWGDIMELEAPLEESESQKKERQKSDRRKSRHHYDSDEKSETRENGVTDDLDAPKAKKSKMKEKLNGDTEEGFNRLSDEFSKSHKSRRKDLPNGDIDEYEKKSKRVSSLDTSTHKSSDNKLEETLTREQKEGAFSNFPISEETIKLLKGRGVTYLFPIQVKTFGPVYEGKDLIAQARTGTGRTFSFAIPLIERLQRNQETIKKSRSPKVLVLAPTRELANQVAKDFKDITRKLSVACFYGGTSYQSQINHIRNGIDILVGTPGRIKDHLQSGRLDLSKLRHVVLDEVDQMLDLGFAEQVEDIIHESYKTDSEDNPQTLLFSATCPQWVYKVAKKYMKSRYEQVDLVGKMTQKAATTVEHLAIQCHWSQRPAVIGDVLQVYSGSEGRAIIFCETKKNVTEMAMNPHIKQNAQCLHGDIAQSQREITLKGFREGSFKVLVATNVAARGLDIPEVDLVIQSSPPQDVESYIHRSGRTGRAGRTGICICFYQPRERGQLRYVEQKAGITFKRVGVPSTMDLVKSKSMDAIRSLASVSYAAVDFFRPSAQRLIEEKGAVDALAAALAHISGASSFEPRSLITSDKGFVTMTLESLEEIQDVSCAWKELNRKLSSNAVSQITRMCLLKGNMGVCFDVPTTESERLQAEWHDSDWILSVPAKLPEIEEYYDGNTSSNSRQRSGWSSGRSGRSGRSGGRSGGRSGRQSRQGSRSGSRQDGRRRSGNRNRSRSGGHKRSFD
B6: VPS1 (Saccharomyces cerevisiae, UniProt P21576); sequence looked up; chain MDEHLISTINKLQDALAPLGGGSQSPIDLPQITVVGSQSSGKSSVLENIVGRDFLPRGTGIVTRRPLVLQLINRRPKKSEHAKVNQTANELIDLNINDDDKKKDESGKHQNEGQSEDNKEEWGEFLHLPGKKFYNFDEIRKEIVKETDKVTGANSGISSVPINLRIYSPHVLTLTLVDLPGLTKVPVGDQPPDIERQIKDMLLKYISKPNAIILSVNAANTDLANSDGLKLAREVDPEGTRTIGVLTKVDLMDQGTDVIDILAGRVIPLRYGYIPVINRGQKDIEHKKTIREALENERKFFENHPSYSSKAHYCGTPYLAKKLNSILLHHIRQTLPEIKAKIEATLKKYQNELINLGPETMDSASSVVLSMITDFSNEYAGILDGEAKELSSQELSGGARISYVFHETFKNGVDSLDPFDQIKDSDIRTIMYNSSGSAPSLFVGTEAFEVLVKQQIRRFEEPSLRLVTLVFDELVRMLKQIISQPKYSRYPALREAISNQFIQFLKDATIPTNEFVVDIIKAEQTYINTAHPDLLKGSQAMVMVEEKLHPRQVAVDPKTGKPLPTQPSSSKAPVMEEKSGFFGGFFSTKNKKKLAALESPPPVLKATGQMTERETMETEVIKLLISSYFSIVKRTIADIIPKALMLKLIVKSKTDIQKVLLEKLYGKQDIEELTKENDITIQRRKECKKMVEILRNASQIVSSV
B7: LPL mature V224C (Homo sapiens, UniProt P06858); Alexa Fluor 555/647 labels; sequence looked up; chain ADQRRDFIDIESKFALRTPEDTAEDTCHLIPGVAESVATCHFNHSSKTFMVIHGWTVTGMYESWVPKLVAALYKREPDSNVIVVDWLSRAQEHYPVSAGYTKLVGQDVARFINWMEEEFNYPLDNVHLLGYSLGAHAAGIAGSLTNKKVNRITGLDPAGPNFEYAEAPSRLSPDDADFVDVLHTFTRGSPGRSIGIQKPVGHVDIYPNGGTFQPGCNIGEAIRCIAERGLGDVDQLVKCSHERSIHLFIDSLLNEENPSKAYRCSSKEAFEKGLCLSCRKNRCNNLGYEINKVRAKRSSKMYLKTRSQMPYKVFHYQVKIHFSGTESETHTNQAFEISLYGTVAESENIPFTLPEVSTNKTYSFLIYTEVDIGELLMLKLKWKSDSYFSWSDWWSSPGFAIQKIRVKAGETQKKVIFCSREKVSHLQKGKAPAVFVKCHDKSLNKKSG
B8: PRDX3 S139E/A142E (Homo sapiens, UniProt P30048); chain APAVTQHAPYFKGTAVVNGEFKDLSLDDFKGKYLVLFFYPLDFTFVCPTEIVAFSDKANEFHDVNCEVVAVSVDSHFEHLEWINTPRKNGGLGHMNIALLSDLTKQISRDYGVLLEGSGLALRGLFIIDPNGVIKHLSVNDLPVGRSVEETLRLVKAFQYVETHGEVCPANWTPDSPTIKPSPAASKEYFQKVNQ
B9: ZBTB5 1-124 (Homo sapiens, UniProt O15062); sequence looked up; chain MDFPGHFEQIFQQLNYQRLHGQLCDCVIVVGNRHFKAHRSVLAACSTHFRALFSVAEGDQTMNMIQLDSEVVTAEAFAALIDMMYTSTLMLGESNVMDVLLAASHLHLNSVVKACKHYLTTRTL
B10: BTK 1-171 (Homo sapiens, UniProt Q06187); sequence looked up; chain MAAVILESIFLKRSQQKKKTSPLNFKKRLFLLTVHKLSYYEYDFERGRRGSKKGSIDVEKITCVETVVPEKNPPPERQIPRRGEESSEMEQISIIERFPYPFQVVYDEGPLYVFSPTEELRKRWIHQLKNVIRYNSDLVQKYHPCFWIDGQYLCCSQTAKNAMGCQILENR
B11: sufS 1-406 (Escherichia coli, UniProt P77444); chain MIFSVDKVRADFPVLSREVNGLPLAYLDSAASAQKPSQVIDAEAEFYRHGYAAVHRGIHTLSAQATEKMENVRKRASLFINARSAEELVFVRGTTEGINLVANSWGNSNVRAGDNIIISQMEHHANIVPWQMLCARVGAELRVIPLNPDGTLQLETLPTLFDEKTRLLAITHVSNVLGTENPLAEMITLAHQHGAKVLVDGAQAVMHHPVDVQALDCDFYVFSGHKLYGPTGIGILYVKEALLQEMPPWEGGGSMIATVSLSEGTTWTKAPWRFEAGTPNTGGIIGLGAALEYVSALGLNNIAEYEQNLMHYALSQLESVPDLTLYGPQNRLGVIAFNLGKHHAYDVGSFLDNYGIAVRTGHHCAMPLMAYYNVPAMCRASLAMYNTHEEVDRLVTGLQRIHRLLG
B12: SPOP E50K (Homo sapiens, UniProt O43791); sequence looked up; chain MSRVPSPPPPAEMSSGPVAESWCYTQIKVVKFSYMWTINNFSFCREEMGKVIKSSTFSSGANDKLKWCLRVNPKGLDEESKDYLSLYLLLVSCPKSEVRAKFKFSILNAKGEETKAMESQRAYRFVQGKDWGFKKFIRRDFLLDEANGLLPDDKLTLFCEVSVVQDSVNISGQNTMNMVKVPECRLADELGGLWENSRFTDCCLCVAGQEFQAHKAILAARSPVFSAMFEHEMEESKKNRVEINDVEPEVFKEMMCFIYTGKAPNLDKMADDLLAAADKYALERLKVMCEDALCSNLSVENAAEILILADLHSADQLKTQAVDFINYHASDVLETSGWKSMVVSHPHLVAEAYRSLASAQCPFLGPPRKRLKQS
Sequence of UniProt Q9XBQ9 (whole entry, looked up): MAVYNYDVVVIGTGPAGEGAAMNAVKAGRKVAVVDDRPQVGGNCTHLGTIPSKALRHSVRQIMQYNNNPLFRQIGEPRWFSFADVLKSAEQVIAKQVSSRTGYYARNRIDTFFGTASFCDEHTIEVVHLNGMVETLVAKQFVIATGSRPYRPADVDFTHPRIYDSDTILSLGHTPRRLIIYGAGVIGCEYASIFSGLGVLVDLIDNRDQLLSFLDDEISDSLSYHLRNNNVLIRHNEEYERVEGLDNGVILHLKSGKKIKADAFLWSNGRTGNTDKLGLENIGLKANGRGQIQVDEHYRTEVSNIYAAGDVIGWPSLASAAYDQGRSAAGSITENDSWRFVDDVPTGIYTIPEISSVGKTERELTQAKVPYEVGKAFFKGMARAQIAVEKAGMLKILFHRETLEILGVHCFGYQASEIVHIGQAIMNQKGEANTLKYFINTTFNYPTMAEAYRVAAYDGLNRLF
Sequence of UniProt P13393 (whole entry, looked up): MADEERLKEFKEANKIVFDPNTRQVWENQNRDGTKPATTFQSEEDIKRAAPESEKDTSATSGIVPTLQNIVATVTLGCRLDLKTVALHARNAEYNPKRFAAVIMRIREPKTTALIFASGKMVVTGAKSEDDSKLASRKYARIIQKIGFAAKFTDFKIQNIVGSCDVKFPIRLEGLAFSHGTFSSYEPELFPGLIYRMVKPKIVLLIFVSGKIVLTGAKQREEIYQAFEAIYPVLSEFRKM

Molecule	tested on	test	system	setting	how to read	measurement	value
CUCCUAACA (ssRNA)	U2AF2	sequencing of bound RNA	RNA	motif only	–	Kd	1.92 µM
B1 (OsCATC T105A)	itself	cross-linking	–	–	–	binding	binds
PSMC1 (human)	CYB5R4 knockout human cells	PP4 interaction, 3xFLAG-PP4C IP-MS	–	concentration not given	reference: CYB5R4 KO over parental	log2 fold change	-0.76
B2 (FCY1 homodimer M100W)	itself	crystal structure	–	–	–	binding	binds
B3 (SPOP R45W)	itself	negative-stain TEM	–	–	–	binding	binds
B4 (ph-p 1397-1577 D33K/D34R)	itself	AUC	–	sedimentation velocity, self-association	–	binding	binds
B5 (DDX50 K187R)	itself	MST	–	–	–	binding	binds
B6 (VPS1)	itself	pellet-supernatant ultracentrifugation	–	–	–	binding	binds
GUGCUCUUU (ssRNA)	U2AF2	sequencing of bound RNA	RNA	motif only	–	Kd	1.21 µM
B7 (LPL mature V224C)	itself	FRET or BRET	–	–	–	binding	binds
B8 (PRDX3 S139E/A142E)	itself	cross-linking	–	–	–	binding	binds
B9 (ZBTB5 1-124)	itself	negative-stain electron microscopy	–	–	–	binding	binds
B10 (BTK 1-171)	itself	FCS	supported lipid bilayers	added: PIP3	–	binding	binds
GAATTCCTATATATTAATGTGGAGCTCCGTTCGTCTCAAGTCAATCGGTCC (dsDNA; 5'-amino-C6 primer)	SPT15 full length assumed (Saccharomyces cerevisiae, UniProt P13393)	array	double-stranded DNA, one strand shown	TBP alone	–	Kd	0.0134 ± 0.00073 µM
human EEF1G	CYB5R4 knockout human cells	PP4 interaction, 3xFLAG-PP4C IP-MS	–	concentration not given	reference: CYB5R4 KO over parental	log2 fold change	0.23
B11 (sufS 1-406)	itself	crystal structure	–	–	–	binding	binds
STDKTKREEVD (AMELX residues 164-174 S11D (Homo sapiens))	itself	dynamic light scattering	peptide	–	–	binding	binds
sthA (Azotobacter vinelandii, UniProt Q9XBQ9)	itself	cryo-EM	–	–	–	binding	binds
B12 (SPOP E50K)	itself	negative-stain TEM	–	–	–	binding	binds

Excerpt of the above:
Molecule	tested on	test	system	setting	how to read	measurement	value
B12 (SPOP E50K)	itself	negative-stain TEM	–	–	–	binding	binds
